# Measured values pooled from the literature.
# Each numbered part is a random draw from the data of one study; scales do not carry over between parts. Values joined by “and” are separate records of one study, mostly repeats; a detail may differ.
# UniProt Q9H4A3, sequence (whole entry, looked up): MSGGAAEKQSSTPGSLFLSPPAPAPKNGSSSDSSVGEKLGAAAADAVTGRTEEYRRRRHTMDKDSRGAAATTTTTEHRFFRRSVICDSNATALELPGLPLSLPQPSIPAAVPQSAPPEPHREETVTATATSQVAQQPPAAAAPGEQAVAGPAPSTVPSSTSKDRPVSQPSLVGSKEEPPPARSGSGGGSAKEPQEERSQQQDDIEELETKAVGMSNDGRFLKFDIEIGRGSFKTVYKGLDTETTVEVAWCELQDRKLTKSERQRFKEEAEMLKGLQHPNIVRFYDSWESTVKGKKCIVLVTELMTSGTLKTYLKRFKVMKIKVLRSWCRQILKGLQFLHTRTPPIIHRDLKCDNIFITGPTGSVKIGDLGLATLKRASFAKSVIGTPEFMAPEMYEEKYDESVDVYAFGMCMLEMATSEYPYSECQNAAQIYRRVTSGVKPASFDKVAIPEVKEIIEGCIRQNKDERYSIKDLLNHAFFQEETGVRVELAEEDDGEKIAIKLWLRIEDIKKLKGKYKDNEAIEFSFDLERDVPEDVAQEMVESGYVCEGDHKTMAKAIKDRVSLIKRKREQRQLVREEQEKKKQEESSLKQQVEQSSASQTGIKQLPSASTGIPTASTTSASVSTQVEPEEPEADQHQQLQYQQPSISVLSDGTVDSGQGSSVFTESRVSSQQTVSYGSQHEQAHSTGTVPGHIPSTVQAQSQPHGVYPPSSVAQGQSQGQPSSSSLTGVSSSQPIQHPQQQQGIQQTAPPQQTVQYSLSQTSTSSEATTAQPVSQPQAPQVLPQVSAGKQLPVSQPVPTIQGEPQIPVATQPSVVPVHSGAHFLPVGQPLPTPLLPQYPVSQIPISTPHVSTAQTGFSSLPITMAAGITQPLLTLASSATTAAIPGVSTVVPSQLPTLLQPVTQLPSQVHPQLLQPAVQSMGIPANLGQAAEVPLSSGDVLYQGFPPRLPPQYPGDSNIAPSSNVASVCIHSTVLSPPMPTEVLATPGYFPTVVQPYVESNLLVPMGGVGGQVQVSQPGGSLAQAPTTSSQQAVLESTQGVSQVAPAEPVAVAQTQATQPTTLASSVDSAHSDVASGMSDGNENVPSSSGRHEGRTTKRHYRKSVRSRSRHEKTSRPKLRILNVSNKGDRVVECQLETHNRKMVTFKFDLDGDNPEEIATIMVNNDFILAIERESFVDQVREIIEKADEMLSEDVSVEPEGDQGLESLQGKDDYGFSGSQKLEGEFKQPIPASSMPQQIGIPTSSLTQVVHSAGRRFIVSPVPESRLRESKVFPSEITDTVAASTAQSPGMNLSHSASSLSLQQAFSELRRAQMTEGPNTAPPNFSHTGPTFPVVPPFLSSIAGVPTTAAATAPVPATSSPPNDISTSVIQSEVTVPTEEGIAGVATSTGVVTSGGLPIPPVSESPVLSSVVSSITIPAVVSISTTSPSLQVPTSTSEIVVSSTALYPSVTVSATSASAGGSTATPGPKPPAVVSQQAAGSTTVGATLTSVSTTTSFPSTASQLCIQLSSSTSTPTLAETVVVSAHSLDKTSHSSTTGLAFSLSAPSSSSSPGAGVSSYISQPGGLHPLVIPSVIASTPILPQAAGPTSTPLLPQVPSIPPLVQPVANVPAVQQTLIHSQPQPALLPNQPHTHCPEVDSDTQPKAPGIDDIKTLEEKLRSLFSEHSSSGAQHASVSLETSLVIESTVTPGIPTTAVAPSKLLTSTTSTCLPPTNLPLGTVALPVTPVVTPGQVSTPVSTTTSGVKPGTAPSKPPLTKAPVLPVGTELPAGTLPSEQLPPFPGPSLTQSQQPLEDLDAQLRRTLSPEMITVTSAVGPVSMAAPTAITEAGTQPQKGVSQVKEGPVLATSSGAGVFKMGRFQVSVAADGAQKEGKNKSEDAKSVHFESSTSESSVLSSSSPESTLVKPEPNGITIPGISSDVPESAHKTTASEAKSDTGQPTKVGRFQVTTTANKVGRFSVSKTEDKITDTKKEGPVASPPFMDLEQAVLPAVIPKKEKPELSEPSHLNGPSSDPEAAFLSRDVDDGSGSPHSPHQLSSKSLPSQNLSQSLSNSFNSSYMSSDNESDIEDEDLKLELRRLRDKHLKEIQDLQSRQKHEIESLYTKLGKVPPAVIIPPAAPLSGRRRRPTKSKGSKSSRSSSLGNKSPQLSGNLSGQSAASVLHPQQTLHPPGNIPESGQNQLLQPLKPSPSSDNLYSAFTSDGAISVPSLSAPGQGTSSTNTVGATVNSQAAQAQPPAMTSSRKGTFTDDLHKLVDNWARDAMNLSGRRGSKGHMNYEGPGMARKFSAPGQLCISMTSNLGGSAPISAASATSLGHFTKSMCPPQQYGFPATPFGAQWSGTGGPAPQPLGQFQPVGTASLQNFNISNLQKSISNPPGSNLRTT
# UniProt P19784, sequence (whole entry, looked up): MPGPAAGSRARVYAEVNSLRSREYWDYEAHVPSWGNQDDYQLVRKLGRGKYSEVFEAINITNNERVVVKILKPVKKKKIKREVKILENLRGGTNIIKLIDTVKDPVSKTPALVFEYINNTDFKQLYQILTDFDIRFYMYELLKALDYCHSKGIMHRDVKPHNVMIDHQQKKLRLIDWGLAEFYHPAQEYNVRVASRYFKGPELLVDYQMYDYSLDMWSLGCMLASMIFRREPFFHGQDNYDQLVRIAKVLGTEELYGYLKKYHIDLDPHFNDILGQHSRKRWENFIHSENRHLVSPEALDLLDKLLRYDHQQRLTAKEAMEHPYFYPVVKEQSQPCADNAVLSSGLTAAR
# UniProt P78362, sequence (whole entry, looked up): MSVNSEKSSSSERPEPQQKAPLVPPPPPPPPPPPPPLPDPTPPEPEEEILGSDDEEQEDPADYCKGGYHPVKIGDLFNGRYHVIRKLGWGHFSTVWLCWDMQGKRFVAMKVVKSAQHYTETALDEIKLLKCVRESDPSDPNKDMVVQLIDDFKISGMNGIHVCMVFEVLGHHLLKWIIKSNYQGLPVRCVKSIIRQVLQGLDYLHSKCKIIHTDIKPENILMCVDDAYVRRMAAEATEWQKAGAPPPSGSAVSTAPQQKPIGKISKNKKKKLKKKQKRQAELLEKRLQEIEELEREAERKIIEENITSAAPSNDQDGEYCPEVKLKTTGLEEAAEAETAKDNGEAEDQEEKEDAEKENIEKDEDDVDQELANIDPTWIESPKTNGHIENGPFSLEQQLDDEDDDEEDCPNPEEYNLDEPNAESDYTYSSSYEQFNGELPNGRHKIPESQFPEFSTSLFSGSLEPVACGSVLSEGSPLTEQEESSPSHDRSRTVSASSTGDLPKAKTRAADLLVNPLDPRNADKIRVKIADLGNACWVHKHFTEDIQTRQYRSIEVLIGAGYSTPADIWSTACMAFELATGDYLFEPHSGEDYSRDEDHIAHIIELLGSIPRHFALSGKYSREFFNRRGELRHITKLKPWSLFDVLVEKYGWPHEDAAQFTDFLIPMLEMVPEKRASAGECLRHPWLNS
# UniProt Q86UE8, sequence (whole entry, looked up): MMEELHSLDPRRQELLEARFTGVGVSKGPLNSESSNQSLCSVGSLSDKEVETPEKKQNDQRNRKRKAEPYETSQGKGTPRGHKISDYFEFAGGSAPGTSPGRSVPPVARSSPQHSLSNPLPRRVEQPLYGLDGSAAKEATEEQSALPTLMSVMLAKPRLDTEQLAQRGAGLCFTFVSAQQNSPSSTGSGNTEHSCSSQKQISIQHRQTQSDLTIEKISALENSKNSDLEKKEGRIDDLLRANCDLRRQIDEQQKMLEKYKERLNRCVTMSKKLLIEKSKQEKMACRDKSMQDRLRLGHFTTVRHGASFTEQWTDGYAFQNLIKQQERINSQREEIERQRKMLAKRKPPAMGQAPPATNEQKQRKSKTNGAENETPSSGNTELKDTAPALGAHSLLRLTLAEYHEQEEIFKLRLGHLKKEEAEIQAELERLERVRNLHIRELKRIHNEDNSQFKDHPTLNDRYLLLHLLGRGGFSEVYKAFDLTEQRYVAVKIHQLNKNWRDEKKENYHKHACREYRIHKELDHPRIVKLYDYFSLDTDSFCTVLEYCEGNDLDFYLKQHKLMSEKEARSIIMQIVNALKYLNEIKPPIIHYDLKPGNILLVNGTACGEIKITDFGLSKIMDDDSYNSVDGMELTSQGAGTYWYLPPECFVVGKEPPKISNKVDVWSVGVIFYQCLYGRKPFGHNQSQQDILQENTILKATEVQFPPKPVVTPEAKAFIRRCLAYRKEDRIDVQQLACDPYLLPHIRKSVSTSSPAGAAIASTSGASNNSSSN

# Study 1 — concentration: 1 µM
# SMILES: CN1CCN(C(=O)c2ccc(NC(=O)Nc3ccc(N(C)c4ccnc(Nc5ccc(CS(C)(=O)=O)cc5)n4)cc3)cc2)CC1
target,observed,method,remaining binding
"CDK11A (Homo sapiens, UniProt Q9UQ88)",binding,,51%
"EPHB4 (Homo sapiens, UniProt P54760)",binding,competition with immobilised ligand,85%
"NTRK1 (Homo sapiens, UniProt P04629)",binding,competition with immobilised ligand,7.1%
"NEK2 (Homo sapiens, UniProt P51955)",binding,competition with immobilised ligand,89%
"MAPK8 (Homo sapiens, UniProt P45983)",binding,,5.5%
"WNK1 (Homo sapiens, UniProt Q9H4A3)",binding,,94%
"PIK3CG (Homo sapiens, UniProt P48736)",binding,,93%
"SRPK2 (Homo sapiens, UniProt P78362)",binding,,80%
"DMPK (Homo sapiens, UniProt Q09013)",binding,competition with immobilised ligand,100%
"CSNK2A2 (Homo sapiens, UniProt P19784)",binding,,63%
"Tyrosine-protein kinase JAK1, JH1 (JAK1, Homo sapiens, UniProt P23458)",cell-free assay,competition with immobilised ligand,76%
"CDK17 (Homo sapiens, UniProt Q00537)",binding,competition with immobilised ligand,91%
"ERBB2 (Homo sapiens, UniProt P04626)",binding,competition with immobilised ligand,100%
"TIE1 (Homo sapiens, UniProt P35590)",binding,competition with immobilised ligand,8.3%
"EGFR (Homo sapiens, UniProt P00533, G719S)",binding,,100%
"MATK (Homo sapiens, UniProt P42679)",binding,,100%

# Study 2 — observed: binding; action: competitor; method: NanoBRET; cells: HEK293
# SMILES: CC(=O)N1CCN(c2nc(OC[C@@H]3CCCN3C)nc3c2CCN(c2cccc4cccc(Cl)c24)C3)C[C@@H]1CC#N
# KRAS Q61R: GTPase KRas (KRAS, Homo sapiens, UniProt P01116, Q61R)
# KRAS G13D: GTPase KRas (KRAS, Homo sapiens, UniProt P01116, G13D)
target,concentration,normalized BRET
KRAS Q61R,15.2 nM,103% and 98.8%
KRAS G13D,412 nM,71.9% and 75.3% and 83.8%
KRAS G13D,1.69 nM,102% and 98.1%
KRAS Q61R,137 nM,102% and 95.3% and 107%
"GTPase KRas (KRAS, Homo sapiens, UniProt P01116, G12D)",137 nM,94% and 91.7% and 91.1%
KRAS G13D,137 nM,87% and 94.2% and 97.6%
KRAS G13D,5.08 nM,105% and 99.2% and 107%
KRAS G13D,45.7 nM,91.3% and 98% and 104%

# Study 3 — observed: enzyme activity; action: inhibitor; concentration: 0.5 µM; relative to: control
# Target: Serine/threonine-protein kinase PAK 4 (PAK4, Homo sapiens, UniProt O96013)
# UniProt O96013, sequence (whole entry, looked up): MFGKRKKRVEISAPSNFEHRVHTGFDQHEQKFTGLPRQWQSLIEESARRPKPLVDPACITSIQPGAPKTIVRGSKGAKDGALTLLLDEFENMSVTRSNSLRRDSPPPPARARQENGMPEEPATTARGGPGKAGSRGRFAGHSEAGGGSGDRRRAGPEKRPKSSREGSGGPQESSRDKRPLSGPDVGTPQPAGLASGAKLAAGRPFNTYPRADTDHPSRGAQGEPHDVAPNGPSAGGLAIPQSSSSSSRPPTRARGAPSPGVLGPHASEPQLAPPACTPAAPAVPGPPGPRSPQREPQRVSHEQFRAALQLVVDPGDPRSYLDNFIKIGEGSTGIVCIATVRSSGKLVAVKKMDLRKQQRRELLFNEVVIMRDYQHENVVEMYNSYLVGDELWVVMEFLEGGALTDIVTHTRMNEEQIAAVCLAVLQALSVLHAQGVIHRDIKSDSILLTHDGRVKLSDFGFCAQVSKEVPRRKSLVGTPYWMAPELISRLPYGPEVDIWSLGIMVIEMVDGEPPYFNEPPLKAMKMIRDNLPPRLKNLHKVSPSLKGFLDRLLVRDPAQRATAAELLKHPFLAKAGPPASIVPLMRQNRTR
Structure (SMILES),remaining activity [%]
COc1cc2c(cc1OC)-c1[nH]nc(Nc3cccc(F)c3)c1C2,89.9
Cc1nc2cc3nc(-c4cccs4)cnc3cc2n1C,126
O=c1cc(-c2cccc3c2Sc2ccccc2S3)oc(N2CCOCC2)c1,116
Nc1cccc(-c2cc3c(Oc4cccc(O)c4)ncnc3[nH]2)c1,99.8
N#Cc1c(NC(=O)c2cccc3ccccc23)sc2c1CCCC2,95.2
CCOc1nc(NC(=O)Cc2cc(OC)ccc2OC)cc(N)c1C#N,91.8
CCN(CC)CCNC(=O)c1c(C)[nH]c(/C=C2\C(=O)Nc3ccc(Cl)cc32)c1C,76.7
O=C1c2ccccc2-c2n[nH]c3cccc1c23,99.4
O=C(Nc1cccc(Nc2nccc(Nc3cccc(C(F)(F)F)c3)n2)c1)C1CC1,87.4
Cc1cc2ncc(-c3ccccc3)nc2cc1C,105
CN([C@@H](Cc1ccc(OS(=O)(=O)c2cccc3cnccc23)cc1)C(=O)N1CCN(c2ccccc2)CC1)S(=O)(=O)c1cccc2cnccc12,94.6
Cc1cn(-c2cc(NC(=O)c3ccc(C)c(Nc4nccc(-c5cccnc5)n4)c3)cc(C(F)(F)F)c2)cn1,88.9
COc1cc2ncnc(Nc3cccc(Cl)c3)c2cc1OC,76.5
CN(C)C[C@H]1CCn2c(c(C3=C(c4cn(C)c5ccccc45)C(=O)NC3=O)c3ccccc32)C1,104
Ic1cccc(CSc2nnc(-c3ccncc3)o2)c1,83.6
CCN(CC)C(=O)c1ccc(Nc2nc(OCC3CCCCC3)c3[nH]cnc3n2)cc1,51.5
Cn1nc2c3c(cccc31)C(=O)c1ccccc1-2,90.4
N#C/C(=C\c1ccc(O)c(O)c1)C(=O)NCc1ccccc1,111
COc1cc2ncnc(Nc3ccc(O)c(Br)c3)c2cc1OC,95.7
c1ccc(-c2[nH]ncc2-c2ccnc3ccccc23)nc1,76.9
c1ccc(-c2cnc(Nc3ccc(OCCN4CCCC4)cc3)s2)cc1,106
C[C@@H]1CCN(C(=O)CC#N)C[C@@H]1N(C)c1ncnc2[nH]ccc12,99.2
CCN(CC)CCNC(=O)c1c(C)[nH]c(/C=C2\C(=O)Nc3ccc(F)cc32)c1C,80.9
O=C(NC(NC(=S)Nc1ccc(F)c([N+](=O)[O-])c1)C(Cl)(Cl)Cl)C(c1ccccc1)c1ccccc1 (centres unmarked),118
O=C1C(Cl)=C(N2C(=O)CCC2=O)C(=O)c2ccccc21,114

# Study 4 — concentration: 1 µM
# Structure (SMILES): CC1=C(C#N)C(c2ccc3c(c2)c(NC(=O)c2ccccc2C)nn3C)C(C#N)=C(C)N1
target,observed,method,remaining binding [%]
"CDK18 (Homo sapiens, UniProt Q07002)",cell-free assay,competition with immobilised ligand,100
"TLK2 (Homo sapiens, UniProt Q86UE8)",cell-free assay,competition with immobilised ligand,100
"TESK1 (Homo sapiens, UniProt Q15569)",cell-free assay,competition with immobilised ligand,96
"STK32B (Homo sapiens, UniProt Q9NY57)",cell-free assay,competition with immobilised ligand,100
"BRSK2 (Homo sapiens, UniProt Q8IWQ3)",cell-free assay,competition with immobilised ligand,92
"CAMK2G (Homo sapiens, UniProt Q13555)",cell-free assay,competition with immobilised ligand,100
"PRKCI (Homo sapiens, UniProt P41743)",cell-free assay,competition with immobilised ligand,66
"ULK2 (Homo sapiens, UniProt Q8IYT8)",cell-free assay,competition with immobilised ligand,72
"PRKCE (Homo sapiens, UniProt Q02156)",cell-free assay,competition with immobilised ligand,85
"FGFR3 (Homo sapiens, UniProt P22607)",cell-free assay,competition with immobilised ligand,94
"RIOK1 (Homo sapiens, UniProt Q9BRS2)",cell-free assay,competition with immobilised ligand,93
"FGR (Homo sapiens, UniProt P09769)",cell-free assay,competition with immobilised ligand,92
"CDC42BPG (Homo sapiens, UniProt Q6DT37)",,competition binding,92
"Mast/stem cell growth factor receptor Kit, autoinhibited (KIT, Homo sapiens, UniProt P10721)",cell-free assay,competition with immobilised ligand,77
"CSNK1G3 (Homo sapiens, UniProt Q9Y6M4)",cell-free assay,competition with immobilised ligand,100
"FLT3 (Homo sapiens, UniProt P36888, F691L/ITD)",cell-free assay,competition with immobilised ligand,64
"NUAK1 (Homo sapiens, UniProt O60285)",cell-free assay,competition with immobilised ligand,95
"TRPM6 (Homo sapiens, UniProt Q9BX84)",cell-free assay,competition with immobilised ligand,91
"PRKAA1 (Homo sapiens, UniProt Q13131)",cell-free assay,competition with immobilised ligand,77
"Tyrosine-protein kinase ABL1, phosphorylated (ABL1, Homo sapiens, UniProt P00519, H396P)",cell-free assay,competition with immobilised ligand,82
"PIK3CA (Homo sapiens, UniProt P42336, M1043I)",cell-free assay,competition with immobilised ligand,100
"WNK1 (Homo sapiens, UniProt Q9H4A3)",cell-free assay,competition with immobilised ligand,82
"MYLK3 (Homo sapiens, UniProt Q32MK0)",cell-free assay,competition with immobilised ligand,86
"DYRK2 (Homo sapiens, UniProt Q92630)",cell-free assay,competition with immobilised ligand,100
"PLK4 (Homo sapiens, UniProt O00444)",cell-free assay,competition with immobilised ligand,100

# Excerpt of the above (study 1):
target,observed,method,remaining binding
"CSNK2A2 (Homo sapiens, UniProt P19784)",binding,,63%
"DMPK (Homo sapiens, UniProt Q09013)",binding,competition with immobilised ligand,100%
"TIE1 (Homo sapiens, UniProt P35590)",binding,competition with immobilised ligand,8.3%
"PIK3CG (Homo sapiens, UniProt P48736)",binding,,93%
"ERBB2 (Homo sapiens, UniProt P04626)",binding,competition with immobilised ligand,100%
"MAPK8 (Homo sapiens, UniProt P45983)",binding,,5.5%
"WNK1 (Homo sapiens, UniProt Q9H4A3)",binding,,94%
"EGFR (Homo sapiens, UniProt P00533, G719S)",binding,,100%
"NEK2 (Homo sapiens, UniProt P51955)",binding,competition with immobilised ligand,89%
"SRPK2 (Homo sapiens, UniProt P78362)",binding,,80%
"EPHB4 (Homo sapiens, UniProt P54760)",binding,competition with immobilised ligand,85%
